Results pooled from the literature.
Every numbered part comes from another study and shows a few of its results, in no order.
Chain of UniProt Q59H18 (whole entry, looked up): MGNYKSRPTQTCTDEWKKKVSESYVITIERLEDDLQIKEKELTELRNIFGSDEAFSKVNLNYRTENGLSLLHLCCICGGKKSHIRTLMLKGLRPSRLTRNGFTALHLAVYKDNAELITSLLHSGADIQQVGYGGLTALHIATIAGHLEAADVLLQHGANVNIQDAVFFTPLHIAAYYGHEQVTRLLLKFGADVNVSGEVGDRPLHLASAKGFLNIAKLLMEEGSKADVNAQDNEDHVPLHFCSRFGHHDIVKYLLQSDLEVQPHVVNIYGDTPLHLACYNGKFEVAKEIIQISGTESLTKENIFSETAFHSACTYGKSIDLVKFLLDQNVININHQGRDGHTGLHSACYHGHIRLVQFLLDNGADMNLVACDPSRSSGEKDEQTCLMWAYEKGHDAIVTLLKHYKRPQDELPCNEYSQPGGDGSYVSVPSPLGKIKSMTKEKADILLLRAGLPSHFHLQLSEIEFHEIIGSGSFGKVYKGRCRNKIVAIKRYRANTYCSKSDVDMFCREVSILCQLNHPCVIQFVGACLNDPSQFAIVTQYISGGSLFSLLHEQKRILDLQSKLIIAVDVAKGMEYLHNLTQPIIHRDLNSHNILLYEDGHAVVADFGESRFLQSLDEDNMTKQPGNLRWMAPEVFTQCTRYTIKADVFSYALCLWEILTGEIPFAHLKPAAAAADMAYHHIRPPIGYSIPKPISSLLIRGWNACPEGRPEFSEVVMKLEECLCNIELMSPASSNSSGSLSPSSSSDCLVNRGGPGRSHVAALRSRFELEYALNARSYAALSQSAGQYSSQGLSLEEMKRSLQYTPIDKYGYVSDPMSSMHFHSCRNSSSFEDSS
Chain of UniProt O75676 (whole entry, looked up): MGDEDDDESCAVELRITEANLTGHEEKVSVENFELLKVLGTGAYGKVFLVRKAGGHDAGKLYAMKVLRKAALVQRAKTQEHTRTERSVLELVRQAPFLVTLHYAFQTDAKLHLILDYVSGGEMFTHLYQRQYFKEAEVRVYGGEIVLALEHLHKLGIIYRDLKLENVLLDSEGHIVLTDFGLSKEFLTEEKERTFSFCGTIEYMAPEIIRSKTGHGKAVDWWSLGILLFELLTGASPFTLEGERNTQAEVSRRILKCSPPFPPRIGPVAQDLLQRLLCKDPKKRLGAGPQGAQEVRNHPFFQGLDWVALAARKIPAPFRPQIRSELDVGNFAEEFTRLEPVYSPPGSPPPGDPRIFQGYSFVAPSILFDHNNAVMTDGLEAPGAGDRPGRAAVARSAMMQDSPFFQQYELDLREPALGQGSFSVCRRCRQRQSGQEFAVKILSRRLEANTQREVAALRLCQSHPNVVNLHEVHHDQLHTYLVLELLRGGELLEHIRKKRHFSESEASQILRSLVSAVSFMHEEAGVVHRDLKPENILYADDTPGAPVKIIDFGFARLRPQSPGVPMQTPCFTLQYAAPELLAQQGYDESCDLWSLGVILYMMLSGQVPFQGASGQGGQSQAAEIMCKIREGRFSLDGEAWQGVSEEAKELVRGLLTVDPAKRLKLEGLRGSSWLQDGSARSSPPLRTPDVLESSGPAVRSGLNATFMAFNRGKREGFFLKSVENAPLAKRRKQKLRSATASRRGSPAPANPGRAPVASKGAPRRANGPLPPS
Chain of UniProt P11802 (whole entry, looked up): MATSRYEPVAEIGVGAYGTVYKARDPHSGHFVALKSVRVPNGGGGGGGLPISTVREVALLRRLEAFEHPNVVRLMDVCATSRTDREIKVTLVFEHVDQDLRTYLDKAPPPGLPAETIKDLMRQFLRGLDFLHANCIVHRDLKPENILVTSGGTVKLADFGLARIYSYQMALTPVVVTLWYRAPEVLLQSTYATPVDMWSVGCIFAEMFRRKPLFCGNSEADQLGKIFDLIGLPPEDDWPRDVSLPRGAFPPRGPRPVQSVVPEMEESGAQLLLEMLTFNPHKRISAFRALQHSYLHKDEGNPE
Chain of UniProt P06241 (whole entry, looked up): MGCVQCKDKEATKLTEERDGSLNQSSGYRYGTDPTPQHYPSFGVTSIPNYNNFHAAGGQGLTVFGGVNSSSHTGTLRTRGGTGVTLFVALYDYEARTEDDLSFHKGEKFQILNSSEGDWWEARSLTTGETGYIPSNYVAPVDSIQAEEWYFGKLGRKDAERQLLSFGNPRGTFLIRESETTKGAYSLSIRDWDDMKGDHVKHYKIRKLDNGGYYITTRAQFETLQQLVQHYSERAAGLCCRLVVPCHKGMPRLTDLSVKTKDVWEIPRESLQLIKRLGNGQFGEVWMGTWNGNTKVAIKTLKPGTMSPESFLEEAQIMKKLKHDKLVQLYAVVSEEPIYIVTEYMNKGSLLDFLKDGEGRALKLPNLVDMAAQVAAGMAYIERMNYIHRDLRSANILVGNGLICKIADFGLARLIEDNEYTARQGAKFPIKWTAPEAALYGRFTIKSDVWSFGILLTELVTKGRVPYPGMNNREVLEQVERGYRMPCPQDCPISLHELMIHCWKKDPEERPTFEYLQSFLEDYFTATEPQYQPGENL

Sample 1
Target: Serine/threonine-protein kinase Nek7 (NEK7, Homo sapiens, UniProt Q8TDX7)
Effect on: enzyme activity
Mode: inhibitor
Tested at: 0.5 µM
Relative to: control
Construct (Q8TDX7 1-302): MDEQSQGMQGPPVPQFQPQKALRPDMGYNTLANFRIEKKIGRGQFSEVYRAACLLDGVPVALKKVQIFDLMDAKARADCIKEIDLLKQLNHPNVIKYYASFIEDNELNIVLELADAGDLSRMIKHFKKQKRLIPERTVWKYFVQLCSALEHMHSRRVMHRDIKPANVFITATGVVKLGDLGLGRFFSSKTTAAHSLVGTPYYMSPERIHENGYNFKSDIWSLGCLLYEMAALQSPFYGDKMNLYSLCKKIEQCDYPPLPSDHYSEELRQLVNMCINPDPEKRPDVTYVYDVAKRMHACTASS
CCCCc1c(-c2ccc(O)cc2)[nH]c2nccnc12 has a remaining activity of 111%.
The remaining activity of c1cc(-c2cnn3cc(-c4ccc(OCCN5CCCCC5)cc4)cnc23)ccn1 is reported as 87.3%.
With FC(F)(F)c1ccc(/C=C/c2nc(COc3ccc(CCCCn4ccnn4)cc3)co2)cc1 the remaining activity was 94.6%.
The remaining activity of CCN(CC)CCCCN1c2ccccc2Oc2ccc(Cl)cc21 is reported as 89.7%.
With O=C(O)/C=C/c1cc(Br)c(Br)c(Br)c1Br the remaining activity was 98%.
CC(C)N(CCC(=O)c1ccc2ccccc2c1)Cc1ccccc1 has a remaining activity of 95.2%.
O=Nc1c(-c2c(O)[nH]c3ccccc23)[nH]c2ccccc12 gave a remaining activity of 106%.
With NC(=O)c1ccc(-c2nc(-c3ccc4c(c3)OCCO4)c(-c3ccccn3)[nH]2)cc1 the remaining activity was 98.5%.
With COc1cc2c(N3CCN(C(=O)Nc4ccc(OC(C)C)cc4)CC3)ncnc2cc1OCCCN1CCCCC1 the remaining activity was 93.4%.
For O=C1c2ccccc2-c2nc3nnnn3nc21, the remaining activity was 83.6%.
CC(C)(C)c1nc2c3cc[nH]c(=O)c3c3cc(F)ccc3c2[nH]1 has a remaining activity of 76.5%.

Sample 2
Cell line: Huh-7
Tested at: 10 µM
Time: 24 h
For N[C@@H](CC(=O)N1CCn2c(nnc2C(F)(F)F)C1)Cc1cc(F)c(F)cc1F, the viability was 95.7%.
With CC(=O)Oc1ccc(C(c2ccc(OC(C)=O)cc2)c2ccccn2)cc1 the viability was 103%.
C[C@]12CC[C@@H]3c4ccc(O)cc4CC[C@H]3[C@@H]1CC[C@@H]2O has a viability of 85.4%.
O=C1O[C@H](CO)[C@@H](O)[C@H](O)[C@H]1O has a viability of 91.3%.
O[C@@H](c1cc(C(F)(F)F)nc2c(C(F)(F)F)cccc12)[C@H]1CCCCN1 (racemic) has a viability of 91.6%.
With Nc1nc2c(ncn2COCCO)c(=O)[nH]1 the viability was 107%.
Cc1cc(C(C)(C)C)c(O)c(C)c1CC1=NCCN1 has a viability of 98.1%.
C=CC[C@@H]1/C=C(\C)C[C@H](C)C[C@H](OC)[C@H]2O[C@@](O)(C(=O)C(=O)N3CCCC[C@H]3C(=O)O[C@H](/C(C)=C/[C@@H]3CC[C@@H](O)[C@H](OC)C3)[C@H](C)[C@@H](O)CC1=O)[C@H](C)C[C@@H]2OC gave a viability of 97.6%.
CC(C)(Sc1cc(C(C)(C)C)c(O)c(C(C)(C)C)c1)Sc1cc(C(C)(C)C)c(O)c(C(C)(C)C)c1 has a viability of 101%.
The viability of C[C@]12CC[C@@H]3c4ccc(O)cc4CC[C@H]3[C@@H]1CCC2=O is reported as 91.9%.
For O=C(O)c1cc(-c2ccc(F)cc2F)ccc1O, the viability was 97.5%.

Sample 3
Target: DNA polymerase theta, ATPase domain (POLQ, Homo sapiens, UniProt O75417)
Chain of UniProt O75417 (whole entry, unmodified, looked up): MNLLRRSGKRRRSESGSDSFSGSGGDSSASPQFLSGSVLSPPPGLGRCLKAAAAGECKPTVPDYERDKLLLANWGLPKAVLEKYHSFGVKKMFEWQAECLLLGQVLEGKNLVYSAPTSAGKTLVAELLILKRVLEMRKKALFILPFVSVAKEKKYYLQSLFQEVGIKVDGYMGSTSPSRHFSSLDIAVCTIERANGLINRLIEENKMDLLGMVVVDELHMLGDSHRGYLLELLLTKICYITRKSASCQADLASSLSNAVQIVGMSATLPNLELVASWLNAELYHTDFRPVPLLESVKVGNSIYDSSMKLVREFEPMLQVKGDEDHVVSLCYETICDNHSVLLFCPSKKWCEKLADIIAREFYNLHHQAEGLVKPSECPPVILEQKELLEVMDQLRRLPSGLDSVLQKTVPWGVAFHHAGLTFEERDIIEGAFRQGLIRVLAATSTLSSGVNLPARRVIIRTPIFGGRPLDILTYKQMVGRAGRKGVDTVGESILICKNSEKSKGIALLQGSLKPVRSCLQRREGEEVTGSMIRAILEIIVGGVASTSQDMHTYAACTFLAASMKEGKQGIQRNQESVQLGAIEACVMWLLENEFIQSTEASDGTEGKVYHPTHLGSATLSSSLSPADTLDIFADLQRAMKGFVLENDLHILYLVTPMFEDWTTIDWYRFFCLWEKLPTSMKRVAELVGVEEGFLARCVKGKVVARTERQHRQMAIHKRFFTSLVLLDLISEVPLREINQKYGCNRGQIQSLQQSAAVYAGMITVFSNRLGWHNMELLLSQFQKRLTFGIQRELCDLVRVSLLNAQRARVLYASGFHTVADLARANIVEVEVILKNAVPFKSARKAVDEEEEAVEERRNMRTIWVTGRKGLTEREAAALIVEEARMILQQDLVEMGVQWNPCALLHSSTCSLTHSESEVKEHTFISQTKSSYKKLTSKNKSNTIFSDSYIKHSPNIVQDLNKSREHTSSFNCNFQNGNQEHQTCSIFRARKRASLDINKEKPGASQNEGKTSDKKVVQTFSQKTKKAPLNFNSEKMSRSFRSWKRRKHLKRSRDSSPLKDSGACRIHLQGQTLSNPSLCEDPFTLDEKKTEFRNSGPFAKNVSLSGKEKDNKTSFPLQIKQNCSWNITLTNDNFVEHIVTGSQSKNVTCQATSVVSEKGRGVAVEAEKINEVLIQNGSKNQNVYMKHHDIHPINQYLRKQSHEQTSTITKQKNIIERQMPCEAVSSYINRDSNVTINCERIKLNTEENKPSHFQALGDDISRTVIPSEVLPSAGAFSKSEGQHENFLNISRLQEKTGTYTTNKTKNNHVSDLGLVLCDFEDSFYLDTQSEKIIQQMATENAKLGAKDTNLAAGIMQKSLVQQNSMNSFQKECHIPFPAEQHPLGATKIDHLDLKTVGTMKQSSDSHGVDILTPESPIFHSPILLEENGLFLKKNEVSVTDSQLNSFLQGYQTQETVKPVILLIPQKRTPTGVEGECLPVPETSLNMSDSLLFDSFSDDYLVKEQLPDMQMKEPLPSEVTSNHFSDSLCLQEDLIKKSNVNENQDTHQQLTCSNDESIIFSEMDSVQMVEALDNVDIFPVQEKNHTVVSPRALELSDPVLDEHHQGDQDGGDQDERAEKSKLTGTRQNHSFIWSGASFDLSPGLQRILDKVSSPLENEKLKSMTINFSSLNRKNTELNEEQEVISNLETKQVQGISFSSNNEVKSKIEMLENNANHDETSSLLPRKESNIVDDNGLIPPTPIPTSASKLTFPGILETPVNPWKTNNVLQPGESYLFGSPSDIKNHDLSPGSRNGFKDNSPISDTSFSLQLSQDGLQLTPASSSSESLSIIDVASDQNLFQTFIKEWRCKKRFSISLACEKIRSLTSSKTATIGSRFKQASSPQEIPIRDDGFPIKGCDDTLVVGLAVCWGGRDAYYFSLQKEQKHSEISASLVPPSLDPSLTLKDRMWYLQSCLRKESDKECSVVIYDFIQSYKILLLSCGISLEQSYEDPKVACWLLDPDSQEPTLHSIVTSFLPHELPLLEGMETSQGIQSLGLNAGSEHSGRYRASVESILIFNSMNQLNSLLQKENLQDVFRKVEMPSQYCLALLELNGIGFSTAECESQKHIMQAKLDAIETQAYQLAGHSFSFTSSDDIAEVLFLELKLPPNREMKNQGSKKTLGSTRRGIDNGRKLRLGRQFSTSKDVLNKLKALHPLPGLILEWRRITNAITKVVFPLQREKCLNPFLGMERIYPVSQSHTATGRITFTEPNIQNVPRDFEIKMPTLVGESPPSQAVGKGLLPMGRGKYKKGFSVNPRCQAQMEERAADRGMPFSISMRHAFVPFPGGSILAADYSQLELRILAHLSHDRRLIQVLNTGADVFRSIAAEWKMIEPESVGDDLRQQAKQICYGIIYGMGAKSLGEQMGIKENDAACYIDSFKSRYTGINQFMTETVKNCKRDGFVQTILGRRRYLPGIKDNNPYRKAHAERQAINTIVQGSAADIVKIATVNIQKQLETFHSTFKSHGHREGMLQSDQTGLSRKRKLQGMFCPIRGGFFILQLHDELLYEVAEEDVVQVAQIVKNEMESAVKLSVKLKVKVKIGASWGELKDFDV
Effect on: enzyme activity
Mode: inhibitor
Tested at: 77 µM
Relative to: untreated
COc1cc2ccc(=O)oc2cc1O has a remaining activity of 74%.
With CN(C)Cc1ccc(S(=O)(=O)n2ccc(/C=C/C(=O)NO)c2)cc1 the remaining activity was 102%.
The remaining activity of CCOC(=O)[C@@](C)(N)Cc1ccc(O)c(O)c1 is reported as 91.1%.
With COc1ccc2nc3n[nH]c(C)c3c(NCCOCCO)c2c1 the remaining activity was 98.3%.
The remaining activity of C[C@H](CCC(=O)O)[C@H]1CC[C@H]2[C@@H]3[C@@H](O)C[C@@H]4C[C@H](O)CC[C@]4(C)[C@H]3CC[C@]12C is reported as 88%.
The remaining activity of C=CC(N)CCC(=O)O (stereo not shown) is reported as 95.7%.
With Cc1ccc(S(=O)(=O)c2ccc([N+](=O)[O-])o2)cc1 the remaining activity was 104%.
For CC(=O)c1c(C)c2cnc(Nc3ccc(N4CCNCC4)cn3)nc2n(C2CCCC2)c1=O, the remaining activity was 84.3%.

Sample 4
SMILES: CCCOc1ccc([C@H]2[C@H](C(=O)O)[C@@H](c3ccc4c(c3)OCO4)CN2CC(=O)Nc2c(CC)cccc2CC)cc1
Method: competition with immobilised ligand
Tested at: 1 µM
The remaining binding was 99% (SRC (Homo sapiens, UniProt P12931); cell-free assay).
The remaining binding was 100% (TNNI3K (Homo sapiens, UniProt Q59H18); cell-free assay).
For DYRK1A (Homo sapiens, UniProt Q13627); cell-free assay: remaining binding read 73%.
For CDK11A (Homo sapiens, UniProt Q9UQ88); binding: remaining binding read 98%.
LYN (Homo sapiens, UniProt P07948); cell-free assay — remaining binding: 90%.
It gave 100% for remaining binding (FYN (Homo sapiens, UniProt P06241); cell-free assay).
For CLK1 (Homo sapiens, UniProt P49759); cell-free assay: remaining binding read 87%.
The remaining binding was 83% (CIT (Homo sapiens, UniProt O14578); cell-free assay).
For Ribosomal protein S6 kinase alpha-4, N-terminal kinase domain (RPS6KA4, Homo sapiens, UniProt O75676); cell-free assay: remaining binding read 84%.
It gave 95% for remaining binding (TGFBR2 (Homo sapiens, UniProt P37173); cell-free assay).
STK3 (Homo sapiens, UniProt Q13188); cell-free assay — remaining binding: 96%.
It gave 13% for remaining binding (FLT3 (Homo sapiens, UniProt P36888, F691L/ITD); cell-free assay).
For MAPK9 (Homo sapiens, UniProt P45984); cell-free assay: remaining binding read 65%.
It gave 68% for remaining binding (ULK1 (Homo sapiens, UniProt O75385); cell-free assay).
Cyclin-dependent kinase 4, with cyclin D1 (CDK4, Homo sapiens, UniProt P11802); cell-free assay — remaining binding: 100%.
For EPHB6 (Homo sapiens, UniProt O15197); cell-free assay: remaining binding read 65%.

Some of these lines once more (sample 4):
For DYRK1A (Homo sapiens, UniProt Q13627); cell-free assay: remaining binding read 73%.
Cyclin-dependent kinase 4, with cyclin D1 (CDK4, Homo sapiens, UniProt P11802); cell-free assay — remaining binding: 100%.
It gave 68% for remaining binding (ULK1 (Homo sapiens, UniProt O75385); cell-free assay).
LYN (Homo sapiens, UniProt P07948); cell-free assay — remaining binding: 90%.
For MAPK9 (Homo sapiens, UniProt P45984); cell-free assay: remaining binding read 65%.
For CLK1 (Homo sapiens, UniProt P49759); cell-free assay: remaining binding read 87%.
It gave 95% for remaining binding (TGFBR2 (Homo sapiens, UniProt P37173); cell-free assay).
